Published values of several laboratories.
A part holds a random share of what one study measured.
Sequence of UniProt Q15139 (whole entry, looked up): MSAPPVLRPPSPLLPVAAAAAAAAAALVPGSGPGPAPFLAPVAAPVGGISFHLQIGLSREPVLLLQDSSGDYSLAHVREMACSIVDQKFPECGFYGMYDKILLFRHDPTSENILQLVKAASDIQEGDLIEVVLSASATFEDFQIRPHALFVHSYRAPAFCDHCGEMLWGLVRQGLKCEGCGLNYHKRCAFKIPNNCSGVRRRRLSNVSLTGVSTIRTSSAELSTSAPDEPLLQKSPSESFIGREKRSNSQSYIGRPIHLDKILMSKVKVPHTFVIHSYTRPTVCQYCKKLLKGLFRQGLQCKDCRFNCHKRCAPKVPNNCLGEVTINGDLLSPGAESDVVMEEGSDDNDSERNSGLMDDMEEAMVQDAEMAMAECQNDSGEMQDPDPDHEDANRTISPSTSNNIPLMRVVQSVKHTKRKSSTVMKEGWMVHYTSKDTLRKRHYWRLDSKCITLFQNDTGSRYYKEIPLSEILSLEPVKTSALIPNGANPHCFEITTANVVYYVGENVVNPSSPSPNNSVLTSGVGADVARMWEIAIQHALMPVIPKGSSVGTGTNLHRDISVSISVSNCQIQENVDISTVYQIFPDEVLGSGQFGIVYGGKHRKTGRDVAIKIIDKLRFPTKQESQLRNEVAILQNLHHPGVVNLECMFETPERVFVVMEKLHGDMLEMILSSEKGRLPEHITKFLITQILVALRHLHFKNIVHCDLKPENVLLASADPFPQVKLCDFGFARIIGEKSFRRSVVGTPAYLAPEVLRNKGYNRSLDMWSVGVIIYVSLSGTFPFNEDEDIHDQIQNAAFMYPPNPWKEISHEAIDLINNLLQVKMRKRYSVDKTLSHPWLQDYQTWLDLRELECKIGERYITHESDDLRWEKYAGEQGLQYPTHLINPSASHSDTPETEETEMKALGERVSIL
Sequence of UniProt Q6P2M8 (whole entry, looked up): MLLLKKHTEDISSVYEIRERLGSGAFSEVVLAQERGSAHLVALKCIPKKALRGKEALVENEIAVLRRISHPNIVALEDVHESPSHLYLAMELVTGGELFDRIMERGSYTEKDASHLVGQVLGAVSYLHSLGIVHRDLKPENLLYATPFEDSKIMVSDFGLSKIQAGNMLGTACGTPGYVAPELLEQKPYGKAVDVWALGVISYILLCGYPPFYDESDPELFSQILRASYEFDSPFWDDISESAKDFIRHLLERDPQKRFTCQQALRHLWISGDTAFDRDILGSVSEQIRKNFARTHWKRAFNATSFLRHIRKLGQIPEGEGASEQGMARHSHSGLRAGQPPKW
Sequence of UniProt Q00535 (whole entry, looked up): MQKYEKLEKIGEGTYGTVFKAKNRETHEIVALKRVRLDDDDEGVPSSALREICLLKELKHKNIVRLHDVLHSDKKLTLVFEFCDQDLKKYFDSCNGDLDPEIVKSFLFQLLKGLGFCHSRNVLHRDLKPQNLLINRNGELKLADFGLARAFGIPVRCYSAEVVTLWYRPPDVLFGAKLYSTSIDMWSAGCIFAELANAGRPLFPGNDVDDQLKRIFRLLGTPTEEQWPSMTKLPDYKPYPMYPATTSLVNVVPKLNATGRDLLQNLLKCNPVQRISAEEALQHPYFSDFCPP
Sequence of UniProt Q9Y6E0 (whole entry, looked up): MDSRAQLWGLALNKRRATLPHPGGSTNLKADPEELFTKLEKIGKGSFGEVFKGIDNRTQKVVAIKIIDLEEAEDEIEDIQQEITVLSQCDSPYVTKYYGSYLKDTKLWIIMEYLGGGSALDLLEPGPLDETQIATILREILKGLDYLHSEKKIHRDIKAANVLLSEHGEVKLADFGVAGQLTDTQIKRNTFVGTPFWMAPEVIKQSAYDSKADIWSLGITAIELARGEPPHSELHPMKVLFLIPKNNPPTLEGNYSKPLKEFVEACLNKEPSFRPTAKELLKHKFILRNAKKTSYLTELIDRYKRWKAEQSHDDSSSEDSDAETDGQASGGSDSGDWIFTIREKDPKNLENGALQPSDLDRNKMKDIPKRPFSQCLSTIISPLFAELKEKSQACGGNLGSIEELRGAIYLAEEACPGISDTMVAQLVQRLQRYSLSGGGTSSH
Sequence of UniProt Q9BYT3 (whole entry, looked up): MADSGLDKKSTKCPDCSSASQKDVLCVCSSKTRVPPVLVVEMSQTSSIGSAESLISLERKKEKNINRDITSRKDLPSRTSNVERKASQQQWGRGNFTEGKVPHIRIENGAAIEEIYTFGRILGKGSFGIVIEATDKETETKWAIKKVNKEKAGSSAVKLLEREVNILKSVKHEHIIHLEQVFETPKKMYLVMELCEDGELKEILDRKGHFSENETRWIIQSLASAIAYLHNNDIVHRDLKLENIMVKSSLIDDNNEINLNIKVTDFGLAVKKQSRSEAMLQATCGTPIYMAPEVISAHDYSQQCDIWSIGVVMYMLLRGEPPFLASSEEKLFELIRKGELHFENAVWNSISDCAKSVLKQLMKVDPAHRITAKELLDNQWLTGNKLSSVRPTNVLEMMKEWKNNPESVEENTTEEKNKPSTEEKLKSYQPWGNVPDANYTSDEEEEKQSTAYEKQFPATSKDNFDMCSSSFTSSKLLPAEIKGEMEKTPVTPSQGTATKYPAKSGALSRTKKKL

Set 1
Target: Leucine-rich repeat serine/threonine-protein kinase 2 (LRRK2, Homo sapiens, UniProt Q5S007)
Sequence of UniProt Q5S007 (whole entry, looked up): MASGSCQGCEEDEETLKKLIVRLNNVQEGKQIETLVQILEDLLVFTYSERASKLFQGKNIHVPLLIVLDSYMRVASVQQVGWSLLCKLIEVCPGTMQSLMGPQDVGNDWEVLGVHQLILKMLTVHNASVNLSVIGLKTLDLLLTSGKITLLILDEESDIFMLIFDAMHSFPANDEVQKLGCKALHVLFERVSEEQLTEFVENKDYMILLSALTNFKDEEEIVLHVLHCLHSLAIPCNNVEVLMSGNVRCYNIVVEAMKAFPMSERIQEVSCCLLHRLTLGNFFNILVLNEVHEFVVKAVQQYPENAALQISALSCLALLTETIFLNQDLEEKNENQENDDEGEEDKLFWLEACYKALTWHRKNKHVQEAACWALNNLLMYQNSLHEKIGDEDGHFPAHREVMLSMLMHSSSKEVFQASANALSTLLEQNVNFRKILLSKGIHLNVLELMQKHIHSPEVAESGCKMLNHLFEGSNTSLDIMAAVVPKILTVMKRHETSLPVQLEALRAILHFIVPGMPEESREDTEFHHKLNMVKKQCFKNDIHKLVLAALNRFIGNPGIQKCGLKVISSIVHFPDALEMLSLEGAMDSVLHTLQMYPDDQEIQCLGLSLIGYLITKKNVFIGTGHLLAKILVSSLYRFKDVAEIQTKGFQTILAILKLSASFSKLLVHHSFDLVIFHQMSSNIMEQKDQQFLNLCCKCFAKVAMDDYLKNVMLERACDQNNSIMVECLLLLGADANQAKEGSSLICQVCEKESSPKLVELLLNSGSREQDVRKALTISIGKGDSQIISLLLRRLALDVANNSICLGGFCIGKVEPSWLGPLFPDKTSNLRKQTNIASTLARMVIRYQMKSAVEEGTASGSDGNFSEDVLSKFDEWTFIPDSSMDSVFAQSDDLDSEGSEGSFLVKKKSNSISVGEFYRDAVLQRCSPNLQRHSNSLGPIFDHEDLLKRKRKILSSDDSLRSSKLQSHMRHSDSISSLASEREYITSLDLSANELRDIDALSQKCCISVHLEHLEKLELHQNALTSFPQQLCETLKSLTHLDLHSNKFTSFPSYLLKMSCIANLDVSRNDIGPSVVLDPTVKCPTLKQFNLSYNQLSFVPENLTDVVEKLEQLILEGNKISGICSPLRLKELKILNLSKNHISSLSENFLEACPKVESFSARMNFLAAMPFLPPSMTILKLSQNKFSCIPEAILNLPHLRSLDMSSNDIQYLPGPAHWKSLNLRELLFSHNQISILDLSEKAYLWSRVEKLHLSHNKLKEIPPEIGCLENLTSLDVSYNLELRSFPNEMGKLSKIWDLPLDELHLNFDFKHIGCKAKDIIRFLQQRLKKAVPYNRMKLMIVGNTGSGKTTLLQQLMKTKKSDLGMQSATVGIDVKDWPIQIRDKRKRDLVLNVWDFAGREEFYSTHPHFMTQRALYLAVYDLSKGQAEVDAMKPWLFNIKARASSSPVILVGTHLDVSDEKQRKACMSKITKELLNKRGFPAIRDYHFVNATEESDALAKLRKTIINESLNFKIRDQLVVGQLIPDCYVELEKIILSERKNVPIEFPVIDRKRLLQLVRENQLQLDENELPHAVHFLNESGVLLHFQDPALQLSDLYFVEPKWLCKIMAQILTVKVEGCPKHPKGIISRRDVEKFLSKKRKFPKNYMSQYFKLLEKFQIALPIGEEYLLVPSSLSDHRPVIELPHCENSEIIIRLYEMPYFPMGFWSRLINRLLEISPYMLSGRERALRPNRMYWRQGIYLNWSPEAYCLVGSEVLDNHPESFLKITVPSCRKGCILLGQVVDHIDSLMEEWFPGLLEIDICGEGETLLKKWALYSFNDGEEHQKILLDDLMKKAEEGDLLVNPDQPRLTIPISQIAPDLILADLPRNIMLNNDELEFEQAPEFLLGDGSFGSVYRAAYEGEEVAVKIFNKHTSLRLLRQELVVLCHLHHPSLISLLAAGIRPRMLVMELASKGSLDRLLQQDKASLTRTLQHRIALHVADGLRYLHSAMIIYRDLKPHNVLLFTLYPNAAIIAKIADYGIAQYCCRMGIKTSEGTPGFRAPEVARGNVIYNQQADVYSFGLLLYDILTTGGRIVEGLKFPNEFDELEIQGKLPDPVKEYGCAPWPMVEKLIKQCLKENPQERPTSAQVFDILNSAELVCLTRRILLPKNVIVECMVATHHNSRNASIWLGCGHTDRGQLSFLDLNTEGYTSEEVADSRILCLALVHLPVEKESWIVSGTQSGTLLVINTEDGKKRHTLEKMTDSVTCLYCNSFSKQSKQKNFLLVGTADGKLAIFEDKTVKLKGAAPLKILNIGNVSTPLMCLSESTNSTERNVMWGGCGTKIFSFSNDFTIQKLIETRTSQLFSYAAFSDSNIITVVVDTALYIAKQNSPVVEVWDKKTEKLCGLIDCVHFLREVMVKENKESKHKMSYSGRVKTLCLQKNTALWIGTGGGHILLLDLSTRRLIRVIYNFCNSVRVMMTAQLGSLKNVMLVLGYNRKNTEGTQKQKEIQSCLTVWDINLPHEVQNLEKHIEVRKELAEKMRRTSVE
Read-out: enzyme activity
Action: inhibitor
Tested at: 0.5 µM
Relative to: control
Compound	remaining activity [%]
NCCNc1ncc(C(N)=O)c(Nc2cccc(C(F)(F)F)c2)n1	42.1
Cn1sc(=O)n(Cc2ccccc2)c1=O	91.9
O=C1NC(=O)C(c2cn(CCCO)c3ncccc23)=C1c1cnccn1	90
CNC(=O)c1cc(Oc2ccc(NC(=O)Nc3ccc(Cl)c(C(F)(F)F)c3)cc2)ccn1	106
OCC(O)CCON=C1C(c2c(O)[nH]c3ccccc23)=Nc2ccccc21 (stereo not shown)	81.2
COc1ccc(C(=O)Nc2sc3c(c2C(N)=O)CCCC3)cc1OC	87.4
Nc1ncnc2n[nH]c(Nc3ccc(F)cc3)c12	89.6
Oc1ccc(-c2nc(-c3ccncc3)c(-c3ccc(F)cc3)[nH]2)cc1	95.8
O=S(=O)(c1cccc2cnccc12)N1CCCNCC1	94.2
Nc1[nH]nc2nc3ccccc3nc12	90.5
Cn1c2ccccc2c2c3c(c4c5ccccc5n(CCC#N)c4c21)CNC3=O	30.5
COc1ccc(OC)c2c(=S)c3ccccc3[nH]c12	98
COc1ccc(CNC(=O)Nc2ncc([N+](=O)[O-])s2)cc1	87.7
CC(C)[C@H](CO)Nc1nc(Nc2cc(N)cc(Cl)c2)c2ncn(C(C)C)c2n1	101
N#CC(C#N)=C(N)/C(C#N)=C/c1ccc(O)cc1	97.1

Set 2
Structure (SMILES): CN([C@@H]1CCc2c(CC(=O)O)c3cc(S(C)(=O)=O)ccc3n2C1)S(=O)(=O)c1ccc(F)cc1
Read-out: cell-free assay
Method: competition with immobilised ligand
Tested at: 1 µM
target	remaining binding [%]
PRKACA (Homo sapiens, UniProt P17612)	100
CDK4 (Homo sapiens, UniProt P11802)	90
LIM domain kinase 1 (LIMK1, Homo sapiens, UniProt P53667)	100
PNCK (Homo sapiens, UniProt Q6P2M8)	90
PIK3CA (Homo sapiens, UniProt P42336, H1047L)	96
CDK5 (Homo sapiens, UniProt Q00535)	86
DAPK1 (Homo sapiens, UniProt P53355)	100
ALK (Homo sapiens, UniProt Q9UM73)	80
RET (Homo sapiens, UniProt P07949, V804M)	100
STK24 (Homo sapiens, UniProt Q9Y6E0)	100

Set 3
Cell line: HuT78
Tested at: 2 µM
Time: 48 h
Relative to: untreated
SMILES	viability
NC1(Cc2ccc(Cl)cc2)CCN(c2ncnc3[nH]ccc23)CC1	125%
CC1(C)CNc2cc(NC(=O)c3cccnc3NCc3ccncc3)ccc21	130%
CC(C)(C)c1ccc(S(=O)(=O)/C=C/C#N)cc1	22.4%
CO[C@H]1C[C@@H]2CC[C@@H](C)[C@@](O)(O2)C(=O)C(=O)N2CCCC[C@H]2C(=O)O[C@H]([C@H](C)C[C@@H]2CC[C@H](n3cnnn3)[C@H](OC)C2)CC(=O)[C@H](C)/C=C(\C)[C@@H](O)[C@@H](OC)C(=O)[C@H](C)C[C@H](C)/C=C/C=C/C=C/1C	68%
O=S(=O)(c1cccc2cnccc12)N1CCCNCC1	141%
CN(c1ccccc1CNc1nc(Nc2ccc3c(c2)CC(=O)N3)ncc1C(F)(F)F)S(C)(=O)=O	62.8%
O=C1NC(=O)[C@@H](c2cn3c4c(cccc24)CCC3)[C@@H]1c1c[nH]c2ccccc12	22.2%
Cc1c(F)cc(C(=O)NC2CC2)cc1-c1ccc(C(=O)NCC(C)(C)C)cn1	103%
C=CC(=O)Nc1cccc(Oc2nc(Nc3ccc(N4CCN(C)CC4)cc3)nc3ccsc23)c1	116%
O=C(NCc1ccccc1)c1csc(Nc2ccncn2)n1	134%
Cc1[nH]c(/C=C2\C(=O)Nc3ccccc32)c(C)c1CCC(=O)O	143%

Set 4
SMILES: Cc1ccc(NC(=O)c2ccnc(C(F)(F)F)c2)cc1-c1cc(OCCO)nc(N2CCOCC2)c1
Tested at: 1 µM
target	test	remaining binding [%]
FGFR3 (Homo sapiens, UniProt P22607, G697C)	binding	72
MYLK (Homo sapiens, UniProt Q15746)	binding	100
PRKD1 (Homo sapiens, UniProt Q15139)	binding	100
ABL1 (Homo sapiens, UniProt P00519, H396P)	–	83
MST1R (Homo sapiens, UniProt Q04912)	binding	87
CDC42BPA (Homo sapiens, UniProt Q5VT25)	binding, competition with immobilised ligand	100
STK33 (Homo sapiens, UniProt Q9BYT3)	binding, competition with immobilised ligand	97

Excerpt of the above (set 2):
target	remaining binding [%]
CDK4 (Homo sapiens, UniProt P11802)	90
RET (Homo sapiens, UniProt P07949, V804M)	100
STK24 (Homo sapiens, UniProt Q9Y6E0)	100
ALK (Homo sapiens, UniProt Q9UM73)	80
PIK3CA (Homo sapiens, UniProt P42336, H1047L)	96
DAPK1 (Homo sapiens, UniProt P53355)	100
PNCK (Homo sapiens, UniProt Q6P2M8)	90
